Measurements of several laboratories.
Parts stem from different laboratories: compare values within a part only. Positions count from the first letter of the parent shown.

Series 1
Target: CCNB1, cyclin fold, Cln2 fusion (human)
Technique: yeast growth competition, sequencing
Medium: yeast
Setting: weak parent motif
Baseline: not given
Reading: higher = stronger binding
Starting sequence: SAMHD1 docking peptide (human); ASKSRVQLFKDDP
For `R5K`, “normalised enrichment score” read 0.21.
For `R5F`, “normalised enrichment score” read 0.127.
`D12N`: “normalised enrichment score” 0.17.
For `Q7E`, “normalised enrichment score” read -0.0289.
For `S4F`, “normalised enrichment score” read 0.694.
For `D11P`, “normalised enrichment score” read 0.441.
For `K3Y`, “normalised enrichment score” read 0.181.
Under “normalised enrichment score”, `Q7A` is recorded as 0.205.
`R5W`: “normalised enrichment score” 0.616.
`L8M` — result for “normalised enrichment score”: 0.258.
Under “normalised enrichment score”, `F9E` is recorded as 0.233.
`D11Q` — result for “normalised enrichment score”: 0.265.
`L8P` — result for “normalised enrichment score”: 0.293.
Under “normalised enrichment score”, `K10V` is recorded as 0.203.
`S2F` — result for “normalised enrichment score”: 0.329.
Under “normalised enrichment score”, `D11T` is recorded as 0.487.
`V6E` — result for “normalised enrichment score”: -0.254.
`V6H` — result for “normalised enrichment score”: -0.217.
`F9N`: “normalised enrichment score” 0.202.
`L8D` — result for “normalised enrichment score”: -0.141.
For `Q7K`, “normalised enrichment score” read 0.397.
Under “normalised enrichment score”, `K3V` is recorded as 0.109.
`S4I`: “normalised enrichment score” 1.94.
`V6Y` — result for “normalised enrichment score”: 0.143.
`D12W`: “normalised enrichment score” -0.395.

Series 2
Target: RNA binding protein fox-1 homolog 2, RRM domain, GST-SBP tag (RBFOX2, Homo sapiens, UniProt O43251-10, residues 100-194)
Technique: RNA Bind-n-Seq
Form: RNA
Medium: in vitro
Tested at: 365 nM
Setting: natural RNA segment, single round, ends assumed
Baseline: no-protein control
Reading: higher = stronger binding
Residues (chain): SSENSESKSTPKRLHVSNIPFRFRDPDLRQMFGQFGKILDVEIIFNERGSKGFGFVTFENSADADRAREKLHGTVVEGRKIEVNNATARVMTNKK
`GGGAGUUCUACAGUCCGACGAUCGAUGAACGUCUUUCCUCUCCUGCCUCCCAUGAGACAGUCUCCUAGGAAUUCUUGGGGAAGUUUGGCUGGAAGCUUGCCAACUGUAAGUUGGAGAAACACACACCUGACACUGGAAUUCUCGGGUGCCAA` — result for “RBNS enrichment (R)”: 0.242.
`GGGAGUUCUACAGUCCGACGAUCAUUGCUACAGAGAUAACUGCCCUGUAGUAUCCCAAUGGAUAUCACUCCCAGUCUCAAAUUGGGCUGGGUAUGGCGGUGUAUAUGCAUGGGAAGCGUCUUGGGGAGGGUGGUGGAAUUCUCGGGUGCCAA` — result for “RBNS enrichment (R)”: 1.3.
For `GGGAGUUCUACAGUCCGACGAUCGAAGAAUAGUAGGAAAUCCAAUGAAAUGGCUGUUUCCACCAAGAAUUCUUAGCACUGGUGUAAAUAUCAUGGUGCCUACUCGAAAGAAAUGUAGAUGCUAUGCAUUUUGAUGGAAUUCUCGGGUGCCAA`, “RBNS enrichment (R)” read 0.41.
`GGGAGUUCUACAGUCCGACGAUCUCUGCCCAGGAGAAAAGGAACUAUACAGCAUAGUGGAGUUUUGUGUACUAAAAUUGCUAUCUACUGGUCCUUUGGAAUUGAAGUAGUAGAAACCUAAAGGCUUGGCGUCAUGGAAUUCUCGGGUGCCAA`: “RBNS enrichment (R)” 0.438.
Under “RBNS enrichment (R)”, `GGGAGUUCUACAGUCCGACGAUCGUCUUCAUCUUCCUCCUCAAGACAGCUGGUGCCUUAGAAUUGGCCCAGCCUCAGAUCCUGUCUUUAGCAACCAGCUAAUAUUUACCCAGAGGUACUGCAAUAGAGUAUUUUGGAAUUCUCGGGUGCCAA` is recorded as 0.576.
`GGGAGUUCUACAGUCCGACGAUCAGUACUUCUCUACUAUCCUAUUAUUAGCUUCUAUCUCUUAGUGUAACUUCAAAACUUUUAAGAGCAGUGAAGUUGGUCAGGGACAUGUGGCCACUUAUUAUUACCUAAAGUGGAAUUCUCGGGUGCCAA` — result for “RBNS enrichment (R)”: 0.234.
`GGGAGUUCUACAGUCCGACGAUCGAUUCAAAGGGUAUACAGCAUUUUGUUUUCUAGUACCAUUGCUUCACUGGGAGCUCAAAAUUUGCCUCCCUGUUAGUCUUUAAUAACUGAGUAGAGUAGCUUUUUUAUUCUGGAAUUCUCGGGUGCCAA`: “RBNS enrichment (R)” 1.23.
Under “RBNS enrichment (R)”, `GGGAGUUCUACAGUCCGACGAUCCUGCCUUCAGAUUCCUGCCGCCAUCUUCUGCCUGCAGGAUUGGGACUCCCACCCUGGCAUCAGACACCAGGCUUUGUCUUCUGGAGUUGCAGCCAGCGCUGCCCCAUGCCUGGAAUUCUCGGGUGCCAA` is recorded as 0.754.

Series 3
Target: Ras GTPase-activating protein-binding protein 1, RRM domain (G3BP1, Homo sapiens, UniProt Q13283)
Sequence of UniProt Q13283 (whole entry, looked up): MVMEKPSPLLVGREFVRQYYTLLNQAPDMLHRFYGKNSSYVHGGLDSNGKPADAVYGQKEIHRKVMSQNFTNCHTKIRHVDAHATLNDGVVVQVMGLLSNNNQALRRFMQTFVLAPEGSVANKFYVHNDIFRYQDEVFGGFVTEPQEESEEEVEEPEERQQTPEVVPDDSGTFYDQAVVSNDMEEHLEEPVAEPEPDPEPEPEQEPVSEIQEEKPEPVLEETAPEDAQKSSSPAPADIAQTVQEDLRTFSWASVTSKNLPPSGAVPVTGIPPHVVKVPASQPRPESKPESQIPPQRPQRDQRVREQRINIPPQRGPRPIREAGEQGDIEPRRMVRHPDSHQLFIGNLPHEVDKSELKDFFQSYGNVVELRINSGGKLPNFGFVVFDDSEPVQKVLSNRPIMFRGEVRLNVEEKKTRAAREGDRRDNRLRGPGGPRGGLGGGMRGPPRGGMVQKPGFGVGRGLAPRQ
Technique: RNA Bind-n-Seq
Form: RNA
Medium: in vitro
Tested at: 1 µM
Setting: whole 134-nt RNA, ends assumed
Together with: 150 mM KCl
Baseline: input library
Reading: higher = stronger binding
The log2 enrichment of `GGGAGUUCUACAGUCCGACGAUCAUUUCUCAGUUGAAGGAUGCUUACACUCUUGUCCAUCUAGACCUCAAUUACUGUUUUUCAGGAAUGUCUGAUCACAGAUACGGGGAUGGUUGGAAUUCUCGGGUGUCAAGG` is reported as -0.229.
`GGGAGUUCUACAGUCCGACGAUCCCUCAAGUCCUGUGCUACACAUCGUAUGUACCGAAUCGGGGCGGCGGGCGGGAAAGUAUUAUGUUACGCCGUUCGGAUCUGCACUUCCAGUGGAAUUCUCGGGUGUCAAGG` has a log2 enrichment of -0.0511.
For `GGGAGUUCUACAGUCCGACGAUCGCAGGAAGUAAAAACAAAUGGAAAUGCUUCGGAUAGUGGCAGGGGUGGGGGUUGCUAAGGAAAGGGUGGGAUGGGAGUGGGUAAAGAAAAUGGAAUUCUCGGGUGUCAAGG`, the log2 enrichment was 1.34.
`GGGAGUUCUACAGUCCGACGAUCUGGCCCUGGUGGCAUGCGGGGAGGAAGAGGUGGCCUCAUGGAUCGUGGUGGUCCCGGUGGAAUAUUCAGAGGUGGCCGUGGUGGAGACAGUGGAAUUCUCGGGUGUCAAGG` has a log2 enrichment of 0.617.
`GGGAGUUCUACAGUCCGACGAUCGCAGGAAGUAAAAACAAAUGGAAAUGCUUCGGAUAGUGGCAGGGGUGGGGGUUGCUAAGGAAAGGGUGCGAUGGGAGUGGGUAAAGAGUUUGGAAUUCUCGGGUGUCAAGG` gave a log2 enrichment of 1.28.
`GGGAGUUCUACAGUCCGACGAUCCAAGUCCUGUGCUACACAUCGUAUGUACCGAAUCGGGGCCCGGGCCCGGCCCGGGAAAGUAUUAUGUUACGCCGUUCGGAUCUGCACUUCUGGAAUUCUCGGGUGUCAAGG` has a log2 enrichment of -0.832.
For `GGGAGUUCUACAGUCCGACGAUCAAGUCCUGUGCUACACAUCGUAUGUACCGAAUCGGAAAGGUUUUUUUGGUUUUUGGAAAGUAUUAUGUUACGCCGUUCGGAUCUGCACUUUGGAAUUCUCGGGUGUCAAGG`, the log2 enrichment was -0.469.
For `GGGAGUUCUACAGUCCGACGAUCAGUCCUGUGCUACACAUCGUAUGUACCGAAUCGGGGAAAGGGGUUUGGGGAAAGGGGAAAGUAUUAUGUUACGCCGUUCGGAUCUGCACUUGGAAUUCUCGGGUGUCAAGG`, the log2 enrichment was 1.87.
`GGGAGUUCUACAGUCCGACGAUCAGUCCUGUGCUACACAUCGUAUGUACCGAAUCGGGUGGGAAAAAGGGAAAAAAAGGGAAAGUAUUAUGUUACGCCGUUCGGAUCUGCACUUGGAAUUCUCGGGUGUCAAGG` gave a log2 enrichment of 0.477.

Series 4
Target: Centromere-binding protein 1, full length, N-terminal tag (CBF1, Saccharomyces cerevisiae, UniProt P17106, residues 1-351)
Sequence of UniProt P17106 (whole entry, looked up): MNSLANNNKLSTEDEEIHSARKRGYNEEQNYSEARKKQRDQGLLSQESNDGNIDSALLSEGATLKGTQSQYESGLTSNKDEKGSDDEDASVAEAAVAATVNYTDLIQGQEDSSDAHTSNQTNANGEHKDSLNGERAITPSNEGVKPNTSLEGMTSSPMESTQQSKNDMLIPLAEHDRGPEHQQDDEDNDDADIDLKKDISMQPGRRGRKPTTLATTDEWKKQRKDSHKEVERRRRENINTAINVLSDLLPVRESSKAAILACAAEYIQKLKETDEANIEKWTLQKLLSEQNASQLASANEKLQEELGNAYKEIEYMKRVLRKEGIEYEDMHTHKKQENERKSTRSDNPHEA
Technique: protein-binding microarray
Form: double-stranded DNA, one strand shown
Medium: in vitro
Tested at: 0.8 µM
Setting: whole 60-bp probe, no competitor
Reading: higher = stronger binding
`GAAGTCACTCACACGCACGCTCATATCAGATGTTAGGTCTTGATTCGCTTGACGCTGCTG` gave a fluorescence intensity of 622 a.u.
`GAAGGGATGCTTCGTCACGTAAAATGGCCGCCGTAGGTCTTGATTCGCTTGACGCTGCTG` has a fluorescence intensity of 524 a.u.
`GAAGATTTGGACAATTACACGAGATCTTTATTATAGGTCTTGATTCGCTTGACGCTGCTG` has a fluorescence intensity of 728 a.u.
`CTATACATACGGAATCATGAGATTCTAAATTTATTCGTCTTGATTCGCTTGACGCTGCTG` has a fluorescence intensity of 593 a.u.
With `CTAGGAGTGCGTCTCCACGTCATCATCATCGTCTTCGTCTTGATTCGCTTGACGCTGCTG` the fluorescence intensity was 522 a.u.
With `CTAAAGTATTTCACCCACGTATGGCAGGCAAGATTCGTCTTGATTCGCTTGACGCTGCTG` the fluorescence intensity was 492 a.u.
The fluorescence intensity of `GAATCCTTTTTTCATCTGATTATATGCTTATATTAGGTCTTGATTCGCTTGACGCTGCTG` is reported as 520 a.u.
`GAACGGGAACGAACGTTCGTGCGGGGTGATGGTTAGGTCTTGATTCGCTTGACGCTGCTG` gave a fluorescence intensity of 508 a.u.
The fluorescence intensity of `GAAAAGCATATGAGTCACGACGTGACCCTCGAATAGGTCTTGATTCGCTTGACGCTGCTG` is reported as 1320 a.u.
For `GAAGTAAGTGAGTGCCTCGTGAACTGCTATTTTTAGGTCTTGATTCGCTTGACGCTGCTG`, the fluorescence intensity was 533 a.u.
`CTAGGAAAAAATGCCCACGCGTATAAGAGTGGATTCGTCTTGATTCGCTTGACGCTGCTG` has a fluorescence intensity of 521 a.u.
`GAAAGGTAACTACGTGACACGAACCAAGTCATCTAGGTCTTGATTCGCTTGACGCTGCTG` gave a fluorescence intensity of 791 a.u.
`GAATCAAATTTCGAAAAGGTGATGACGCCCTATTAGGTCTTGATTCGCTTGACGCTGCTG` gave a fluorescence intensity of 504 a.u.
With `GAATAGTTCGGTGCTCGTGACAAACCTTTTTCCTAGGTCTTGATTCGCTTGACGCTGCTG` the fluorescence intensity was 1380 a.u.
`GAATGAAGGCGAGATCTCATGATAGTTTTCTAATAGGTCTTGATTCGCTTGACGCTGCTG` gave a fluorescence intensity of 529 a.u.
`TGTACGAAGCTATTTCGTGTCATTATAGTAGTTAGGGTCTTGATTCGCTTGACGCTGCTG` gave a fluorescence intensity of 507 a.u.

Some of these lines once more (series 1):
For `S4F`, “normalised enrichment score” read 0.694.
For `D11P`, “normalised enrichment score” read 0.441.
For `K3Y`, “normalised enrichment score” read 0.181.
Under “normalised enrichment score”, `Q7A` is recorded as 0.205.
`R5W`: “normalised enrichment score” 0.616.
`L8M` — result for “normalised enrichment score”: 0.258.
Under “normalised enrichment score”, `F9E` is recorded as 0.233.
`D11Q` — result for “normalised enrichment score”: 0.265.
